Published values collected from several papers.
A part holds a random share of what one study measured.
UniProt Q9UM73, sequence (whole entry, unmodified, looked up): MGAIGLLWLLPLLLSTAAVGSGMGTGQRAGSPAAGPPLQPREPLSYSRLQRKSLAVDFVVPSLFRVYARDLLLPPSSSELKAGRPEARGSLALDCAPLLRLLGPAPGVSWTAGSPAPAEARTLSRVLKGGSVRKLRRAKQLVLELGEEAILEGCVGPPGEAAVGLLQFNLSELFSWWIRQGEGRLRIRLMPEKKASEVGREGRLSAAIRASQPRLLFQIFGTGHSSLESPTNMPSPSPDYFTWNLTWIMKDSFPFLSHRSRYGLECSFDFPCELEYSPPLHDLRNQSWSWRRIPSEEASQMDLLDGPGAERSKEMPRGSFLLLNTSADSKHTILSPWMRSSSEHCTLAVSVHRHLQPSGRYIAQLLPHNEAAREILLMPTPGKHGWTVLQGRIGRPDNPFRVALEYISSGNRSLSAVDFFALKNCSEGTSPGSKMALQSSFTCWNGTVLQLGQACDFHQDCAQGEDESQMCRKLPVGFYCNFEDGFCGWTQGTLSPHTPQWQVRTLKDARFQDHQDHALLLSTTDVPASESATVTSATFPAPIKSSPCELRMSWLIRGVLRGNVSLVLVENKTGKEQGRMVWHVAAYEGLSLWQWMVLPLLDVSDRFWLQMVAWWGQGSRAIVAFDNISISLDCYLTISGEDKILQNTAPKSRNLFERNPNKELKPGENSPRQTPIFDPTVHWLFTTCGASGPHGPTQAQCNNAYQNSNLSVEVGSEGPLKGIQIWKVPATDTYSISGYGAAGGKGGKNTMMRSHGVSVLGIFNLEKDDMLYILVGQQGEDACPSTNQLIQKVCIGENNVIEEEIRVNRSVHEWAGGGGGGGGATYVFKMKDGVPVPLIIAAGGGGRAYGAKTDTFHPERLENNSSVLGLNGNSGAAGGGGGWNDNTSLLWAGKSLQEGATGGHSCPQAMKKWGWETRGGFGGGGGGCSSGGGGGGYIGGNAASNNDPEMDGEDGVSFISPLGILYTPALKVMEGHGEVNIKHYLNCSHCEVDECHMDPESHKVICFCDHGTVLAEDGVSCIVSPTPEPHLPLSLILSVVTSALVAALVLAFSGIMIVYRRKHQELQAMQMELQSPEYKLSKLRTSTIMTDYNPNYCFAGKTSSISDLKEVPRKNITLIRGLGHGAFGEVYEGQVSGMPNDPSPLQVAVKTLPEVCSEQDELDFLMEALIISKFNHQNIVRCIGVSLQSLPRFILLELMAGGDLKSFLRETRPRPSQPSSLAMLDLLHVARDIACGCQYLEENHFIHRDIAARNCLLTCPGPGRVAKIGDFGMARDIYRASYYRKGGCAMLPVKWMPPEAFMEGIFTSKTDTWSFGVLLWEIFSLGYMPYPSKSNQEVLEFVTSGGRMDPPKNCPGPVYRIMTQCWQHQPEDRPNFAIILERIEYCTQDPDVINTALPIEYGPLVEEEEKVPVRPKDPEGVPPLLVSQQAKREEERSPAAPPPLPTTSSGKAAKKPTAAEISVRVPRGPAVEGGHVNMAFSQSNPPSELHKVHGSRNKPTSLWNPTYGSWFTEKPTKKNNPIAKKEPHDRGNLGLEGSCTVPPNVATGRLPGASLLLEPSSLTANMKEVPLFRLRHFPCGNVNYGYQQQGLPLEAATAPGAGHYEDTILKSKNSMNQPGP
UniProt P36894, sequence (whole entry, looked up): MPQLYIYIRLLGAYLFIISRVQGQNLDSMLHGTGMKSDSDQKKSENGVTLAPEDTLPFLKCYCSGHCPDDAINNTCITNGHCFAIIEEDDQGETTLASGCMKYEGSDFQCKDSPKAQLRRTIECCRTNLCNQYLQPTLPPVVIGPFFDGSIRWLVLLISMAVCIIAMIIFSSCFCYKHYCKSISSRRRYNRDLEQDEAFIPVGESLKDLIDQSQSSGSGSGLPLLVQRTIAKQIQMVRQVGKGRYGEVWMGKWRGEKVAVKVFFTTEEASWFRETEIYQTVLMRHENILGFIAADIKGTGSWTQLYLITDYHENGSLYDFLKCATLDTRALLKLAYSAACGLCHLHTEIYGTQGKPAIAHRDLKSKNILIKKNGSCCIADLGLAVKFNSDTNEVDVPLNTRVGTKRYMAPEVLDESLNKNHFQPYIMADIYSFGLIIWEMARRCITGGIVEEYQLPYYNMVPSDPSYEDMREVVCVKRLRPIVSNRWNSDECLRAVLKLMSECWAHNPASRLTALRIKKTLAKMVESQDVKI
UniProt P42336, sequence (whole entry, looked up): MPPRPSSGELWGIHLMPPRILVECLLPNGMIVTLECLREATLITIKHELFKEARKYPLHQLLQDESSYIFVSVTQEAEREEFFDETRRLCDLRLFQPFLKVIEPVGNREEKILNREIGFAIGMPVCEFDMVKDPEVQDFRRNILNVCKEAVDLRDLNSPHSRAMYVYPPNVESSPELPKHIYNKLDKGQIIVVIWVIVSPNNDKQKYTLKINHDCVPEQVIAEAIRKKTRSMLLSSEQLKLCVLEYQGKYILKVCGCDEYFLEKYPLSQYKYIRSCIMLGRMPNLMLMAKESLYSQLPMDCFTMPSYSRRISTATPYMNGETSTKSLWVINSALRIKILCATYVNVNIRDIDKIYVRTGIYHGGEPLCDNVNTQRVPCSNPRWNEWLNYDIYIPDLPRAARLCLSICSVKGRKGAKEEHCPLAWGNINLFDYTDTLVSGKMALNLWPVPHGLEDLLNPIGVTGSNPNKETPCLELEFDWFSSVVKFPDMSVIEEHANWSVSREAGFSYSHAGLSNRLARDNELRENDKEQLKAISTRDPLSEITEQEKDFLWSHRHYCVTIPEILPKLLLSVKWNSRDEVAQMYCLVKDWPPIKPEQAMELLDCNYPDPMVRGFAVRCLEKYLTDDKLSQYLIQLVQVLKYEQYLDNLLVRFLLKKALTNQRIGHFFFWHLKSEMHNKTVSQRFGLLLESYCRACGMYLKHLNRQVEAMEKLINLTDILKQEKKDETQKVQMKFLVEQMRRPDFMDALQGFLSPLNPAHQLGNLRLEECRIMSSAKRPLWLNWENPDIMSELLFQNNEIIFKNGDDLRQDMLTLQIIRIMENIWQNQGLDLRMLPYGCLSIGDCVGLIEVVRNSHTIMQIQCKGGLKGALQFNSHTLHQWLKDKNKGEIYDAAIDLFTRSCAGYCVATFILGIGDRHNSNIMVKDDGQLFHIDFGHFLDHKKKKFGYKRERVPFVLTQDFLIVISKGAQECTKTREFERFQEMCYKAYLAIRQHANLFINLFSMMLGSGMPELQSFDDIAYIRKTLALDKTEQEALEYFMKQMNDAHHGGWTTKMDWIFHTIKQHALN
UniProt P36896, sequence (whole entry, looked up): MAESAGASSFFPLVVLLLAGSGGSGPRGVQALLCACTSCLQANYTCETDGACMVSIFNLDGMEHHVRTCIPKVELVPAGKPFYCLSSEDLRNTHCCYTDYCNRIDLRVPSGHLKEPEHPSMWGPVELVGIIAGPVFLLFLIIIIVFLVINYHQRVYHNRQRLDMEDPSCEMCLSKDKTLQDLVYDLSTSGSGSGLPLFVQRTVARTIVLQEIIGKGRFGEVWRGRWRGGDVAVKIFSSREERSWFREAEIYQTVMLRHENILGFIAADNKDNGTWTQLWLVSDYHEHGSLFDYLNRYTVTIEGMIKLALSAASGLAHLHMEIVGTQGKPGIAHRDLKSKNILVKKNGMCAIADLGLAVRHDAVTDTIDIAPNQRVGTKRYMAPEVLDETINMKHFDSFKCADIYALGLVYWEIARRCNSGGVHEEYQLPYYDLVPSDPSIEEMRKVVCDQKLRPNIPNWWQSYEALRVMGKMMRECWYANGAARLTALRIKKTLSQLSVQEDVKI
UniProt Q9UBE8, sequence (whole entry, looked up): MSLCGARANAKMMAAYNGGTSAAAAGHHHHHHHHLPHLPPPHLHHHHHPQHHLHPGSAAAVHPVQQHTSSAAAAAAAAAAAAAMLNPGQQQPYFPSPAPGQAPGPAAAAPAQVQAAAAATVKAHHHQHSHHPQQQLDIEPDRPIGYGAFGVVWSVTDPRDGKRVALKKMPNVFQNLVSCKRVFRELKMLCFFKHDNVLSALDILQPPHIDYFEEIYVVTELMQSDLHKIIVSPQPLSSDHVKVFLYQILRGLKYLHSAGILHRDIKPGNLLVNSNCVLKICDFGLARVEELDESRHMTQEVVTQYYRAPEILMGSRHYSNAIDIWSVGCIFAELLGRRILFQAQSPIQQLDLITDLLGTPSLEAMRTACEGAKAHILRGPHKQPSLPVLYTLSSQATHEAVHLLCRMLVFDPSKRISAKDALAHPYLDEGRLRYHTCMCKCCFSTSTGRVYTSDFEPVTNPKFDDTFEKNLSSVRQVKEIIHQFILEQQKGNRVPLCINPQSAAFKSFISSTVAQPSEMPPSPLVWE

Study 1
Compound: CCOC(=O)c1cc2cc(-c3cc(C(=O)NCc4ccc(C(=O)O)cc4)nn3C)ccc2[nH]1
Technique: competition with immobilised ligand
Concentration: 0.1 µM
Endpoint: remaining binding
target = Mast/stem cell growth factor receptor Kit (KIT, Homo sapiens, UniProt P10721); observed = cell-free assay; result = 97%
target = Tyrosine-protein kinase receptor Tie-1 (TIE1, Homo sapiens, UniProt P35590); observed = cell-free assay; result = 76%
target = Tyrosine-protein kinase Yes (YES1, Homo sapiens, UniProt P07947); observed = cell-free assay; result = 100%
target = NUAK family SNF1-like kinase 1 (NUAK1, Homo sapiens, UniProt O60285); observed = cell-free assay; result = 100%
target = Serine/threonine-protein kinase Sgk1 (SGK1, Homo sapiens, UniProt O00141); observed = cell-free assay; result = 100%
target = RAC-beta serine/threonine-protein kinase (AKT2, Homo sapiens, UniProt P31751); observed = cell-free assay; result = 100%
target = Mitogen-activated protein kinase 14 (MAPK14, Homo sapiens, UniProt Q16539); observed = cell-free assay; result = 100%
target = Activin receptor type-1B (ACVR1B, Homo sapiens, UniProt P36896); observed = cell-free assay; result = 86%
target = Tyrosine-protein kinase ABL1, non-phosphorylated (ABL1, Homo sapiens, UniProt P00519, F317I); observed = binding; result = 80%
target = Ephrin type-A receptor 5 (EPHA5, Homo sapiens, UniProt P54756); observed = cell-free assay; result = 100%
target = Bone morphogenetic protein receptor type-1A (BMPR1A, Homo sapiens, UniProt P36894); observed = binding; result = 87%
target = Protein-tyrosine kinase 2-beta (PTK2B, Homo sapiens, UniProt Q14289); observed = cell-free assay; result = 100%
target = ALK tyrosine kinase receptor (ALK, Homo sapiens, UniProt Q9UM73); observed = cell-free assay; result = 98%
target = Cyclin-dependent kinase 5 (CDK5, Homo sapiens, UniProt Q00535); observed = cell-free assay; result = 94%
target = Ephrin type-B receptor 2 (EPHB2, Homo sapiens, UniProt P29323); observed = cell-free assay; result = 100%
target = Homeodomain-interacting protein kinase 2 (HIPK2, Homo sapiens, UniProt Q9H2X6); observed = cell-free assay; result = 82%
target = SNF-related serine/threonine-protein kinase (SNRK, Homo sapiens, UniProt Q9NRH2); observed = cell-free assay; result = 80%
target = Serine/threonine-protein kinase pim-2 (PIM2, Homo sapiens, UniProt Q9P1W9); observed = cell-free assay; result = 96%
target = Phosphatidylinositol 4,5-bisphosphate 3-kinase catalytic subunit alpha isoform (PIK3CA, Homo sapiens, UniProt P42336); observed = cell-free assay; result = 92%
target = Activin receptor type-1 (ACVR1, Homo sapiens, UniProt Q04771); observed = cell-free assay; result = 84%
target = Leukocyte tyrosine kinase receptor (LTK, Homo sapiens, UniProt P29376); observed = cell-free assay; result = 100%
target = Mitogen-activated protein kinase kinase kinase 10 (MAP3K10, Homo sapiens, UniProt Q02779); observed = cell-free assay; result = 70%
target = Homeodomain-interacting protein kinase 1 (HIPK1, Homo sapiens, UniProt Q86Z02); observed = cell-free assay; result = 91%
target = Serine/threonine-protein kinase 26 (STK26, Homo sapiens, UniProt Q9P289); observed = cell-free assay; result = 81%
target = cAMP-dependent protein kinase catalytic subunit beta (PRKACB, Homo sapiens, UniProt P22694); observed = cell-free assay; result = 86%

Study 2
Compound: CO[C@@H]1[C@H](N(C)C(=O)c2ccccc2)C[C@H]2O[C@]1(C)n1c3ccccc3c3c4c(c5c6ccccc6n2c5c31)C(=O)NC4
Observed: enzyme activity
Mode: inhibitor
Concentration: 1 µM
Endpoint: inhibition
target = Epidermal growth factor receptor (EGFR, Homo sapiens, UniProt P00533, L861Q); result = 40%
target = Mitogen-activated protein kinase kinase kinase 6 (MAP3K6, Homo sapiens, UniProt O95382); result = 34%
target = Serine/threonine-protein kinase NLK (NLK, Homo sapiens, UniProt Q9UBE8); result = 7%
target = ALK tyrosine kinase receptor (ALK, Homo sapiens, UniProt Q9UM73, C1156Y); result = 49%

Study 3
Species: human
Sample: microsomes or S9
Concentration: 2 µM
Time: 0.5 h
Endpoint: remaining compound
SMILES = CCn1cc(C(=O)NCc2ccc3c(c2)OCO3)c(=O)c2cc(F)c(N3CCN(C)CC3)cc21; result = 44.6%
SMILES = CNC(=O)/C(=C/OC)n1c(-c2ccc(F)cc2F)noc1=O; result = 83.6%
SMILES = CC(c1cnccn1)N1CCN(S(C)(=O)=O)c2ccccc2C1 (centres unmarked); result = 1.02%
SMILES = Cc1ccc(-c2noc(=O)n2Cc2ccc(S(=O)(=O)N(C)C)cc2)cc1; result = 2.94%
SMILES = COc1cc(-c2nc3ncccn3c2NC2CCCC2)cc(OC)c1OC; result = 10.7%
SMILES = CCc1cnc(C)nc1NCC1CC(C(C)C)=NO1 (centres unmarked); result = 95.8%
SMILES = CC(C)(C)S(=O)(=O)c1ccc2nc3c(n2c1)CCCC3; result = 69%
SMILES = Cc1ccc(S(=O)(=O)N2c3c(c4ccccc4n3Cc3ccccc3)CC=CC2c2ccccc2)cc1 (centres unmarked); result = 32.7%

Study 4
Target: Cytoplasmic tyrosine-protein kinase BMX (BMX, Homo sapiens, UniProt P51813)
UniProt P51813, sequence (whole entry, looked up): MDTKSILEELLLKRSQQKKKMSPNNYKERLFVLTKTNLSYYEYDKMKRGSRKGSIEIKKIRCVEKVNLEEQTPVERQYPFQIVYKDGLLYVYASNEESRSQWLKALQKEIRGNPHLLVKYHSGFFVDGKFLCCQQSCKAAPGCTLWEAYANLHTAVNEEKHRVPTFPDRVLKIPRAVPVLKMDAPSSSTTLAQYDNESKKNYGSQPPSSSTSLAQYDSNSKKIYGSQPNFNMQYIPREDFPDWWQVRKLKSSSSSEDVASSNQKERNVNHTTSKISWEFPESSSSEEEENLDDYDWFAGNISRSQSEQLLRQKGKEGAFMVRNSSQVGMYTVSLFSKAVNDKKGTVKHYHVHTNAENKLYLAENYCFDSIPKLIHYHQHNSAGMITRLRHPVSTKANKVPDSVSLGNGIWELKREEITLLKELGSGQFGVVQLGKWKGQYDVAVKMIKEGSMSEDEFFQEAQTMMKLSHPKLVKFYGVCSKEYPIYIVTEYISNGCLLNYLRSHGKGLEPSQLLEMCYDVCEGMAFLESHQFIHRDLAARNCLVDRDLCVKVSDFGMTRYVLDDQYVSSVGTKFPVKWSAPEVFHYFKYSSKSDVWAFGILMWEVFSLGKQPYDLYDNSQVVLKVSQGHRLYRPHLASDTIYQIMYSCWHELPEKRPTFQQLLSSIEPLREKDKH
Observed: enzyme activity
Mode: inhibitor
Concentration: 0.5 µM
Reference: control
Endpoint: remaining activity
Compound = Nc1cccc(-c2cc3c(Oc4cccc(O)c4)ncnc3[nH]2)c1; result = 24.3%
Compound = CN(C)C[C@H]1CCn2c(c(C3=C(c4cn(C)c5ccccc45)C(=O)NC3=O)c3ccccc32)C1; result = 91.7%
Compound = COc1cc2c(cc1OC)-c1[nH]nc(Nc3cccc(F)c3)c1C2; result = 74.8%
Compound = COc1cc2ncnc(Nc3cccc(Cl)c3)c2cc1OC; result = 88.6%
Compound = Cc1nc2cc3nc(-c4cccs4)cnc3cc2n1C; result = 117%
Compound = CCOc1nc(NC(=O)Cc2cc(OC)ccc2OC)cc(N)c1C#N; result = 98.4%
Compound = CCN(CC)C(=O)c1ccc(Nc2nc(OCC3CCCCC3)c3[nH]cnc3n2)cc1; result = 42.9%
Compound = Cc1cc2ncc(-c3ccccc3)nc2cc1C; result = 90%
Compound = N#Cc1c(NC(=O)c2cccc3ccccc23)sc2c1CCCC2; result = 101%
Compound = COc1cc2ncnc(Nc3ccc(O)c(Br)c3)c2cc1OC; result = 95.3%
Compound = O=C(NC(NC(=S)Nc1ccc(F)c([N+](=O)[O-])c1)C(Cl)(Cl)Cl)C(c1ccccc1)c1ccccc1 (centres unmarked); result = 102%
Compound = O=C1C(Cl)=C(N2C(=O)CCC2=O)C(=O)c2ccccc21; result = 103%
Compound = O=C(Nc1cccc(Nc2nccc(Nc3cccc(C(F)(F)F)c3)n2)c1)C1CC1; result = 83.6%
Compound = c1ccc(-c2[nH]ncc2-c2ccnc3ccccc23)nc1; result = 89.2%
Compound = CCN(CC)CCNC(=O)c1c(C)[nH]c(/C=C2\C(=O)Nc3ccc(F)cc32)c1C; result = 99%
Compound = C[C@@H]1CCN(C(=O)CC#N)C[C@@H]1N(C)c1ncnc2[nH]ccc12; result = 111%
Compound = Cn1nc2c3c(cccc31)C(=O)c1ccccc1-2; result = 101%
Compound = N#C/C(=C\c1ccc(O)c(O)c1)C(=O)NCc1ccccc1; result = 88.8%
Compound = c1ccc(-c2cnc(Nc3ccc(OCCN4CCCC4)cc3)s2)cc1; result = 84.5%

A few entries again (study 1):
target = Mitogen-activated protein kinase 14 (MAPK14, Homo sapiens, UniProt Q16539); observed = cell-free assay; result = 100%
target = Activin receptor type-1B (ACVR1B, Homo sapiens, UniProt P36896); observed = cell-free assay; result = 86%
target = Tyrosine-protein kinase ABL1, non-phosphorylated (ABL1, Homo sapiens, UniProt P00519, F317I); observed = binding; result = 80%
